Experimental data from different studies.
Lines come from different studies, so protocols differ. ± marks the error that the study gave.

Compound | test | system | setting | fraction unbound
CC#Cc1cncc(-c2ccc3c(c2)[C@@]2(N=C(C)C(N)=N2)[C@]2(CC[C@H](OC)CC2)C3)c1 | equilibrium dialysis | mouse plasma | 6 h, pH 7.4 | 0.016
O=S(=O)(c1ccc(-c2ccc3nccc(Nc4cccnc4)c3c2)cc1)N1CCOCC1 | – | human plasma | – | 0.053
COc1ccc([C@@H]2Sc3ccccc3N(CCN(C)C)C(=O)[C@@H]2OC(C)=O)cc1 | rapid equilibrium dialysis | human plasma | 2 µM, 6 h, pH 7.4 | 0.246
C=CC(=O)N1CC2(CCN(c3nc4c(c(-c5cc(O)cc6ccccc56)c3F)C[C@H]3C[C@@H]4C3(C)C)C2)C1 | – | mouse plasma | – | 0.03
C1CCc2c(c(N3CCOCC3)nc3sc4c(N5CCNCC5)nnnc4c23)C1 | equilibrium dialysis | male Sprague Dawley rat plasma | 2 µM, 4 h, pH 7.4, 37 °C | 0.11
COc1ccc(Nc2ccnc3ccc(-c4ccc(S(=O)(=O)N5CCOCC5)cc4)cc23)cc1Cl | – | human plasma | – | 0.003
Cc1onc(-c2ccccc2Cl)c1C(=O)N[C@@H]1C(=O)N2[C@@H]1SC(C)(C)[C@@H]2C(=O)O | ultrafiltration | patient plasma | range over 9 samples | 0.08 to 0.24
c1cc(-c2ccc3ncnc(Nc4ncco4)c3c2)cc(N2CC3(COC3)C2)c1 | – | human plasma | – | 0.013
CC(C)(CO)c1cc2cc(NC(=O)C3(c4ccc5c(c4)OC(F)(F)O5)CC3)c(F)cc2n1C[C@@H](O)CO | rapid equilibrium dialysis | human, plasma | 6 h post-dose | 0.006
Cc1ccc(C(=O)Nc2ccnc(S(N)(=O)=O)c2)c(N2CCCC(F)(F)CC2)n1 | – | plasma | – | 6.6%
CC(=O)CC(c1ccccc1)c1c(O)c2ccccc2oc1=O (centres unmarked) | rapid equilibrium dialysis | rat plasma | 2 µM, 6 h, pH 7.4 | 0.0083
COc1cc2nc(N3CCN(C(=O)C4COc5ccccc5O4)CC3)nc(N)c2cc1OC (centres unmarked) | equilibrium dialysis | human plasma | – | 0.066
Cc1nc(Nc2ncnc3ccc(-c4cccc(N5CCOCC5)c4)cc23)oc1C | – | human plasma | – | 0.0007
O=C(NO)c1ccc(CN(c2cnccn2)c2cnccn2)cc1 | – | human plasma | – | 0.56
C=CC(=O)Nc1cc(Nc2ncc(C(=O)OC(C)C)c(-c3cn(C)c4ccccc34)n2)c(OC)cc1N(C)CCN(C)C | – | rat brain slices | – | 0.0008 ± 0.0001
C[C@H]1CNC(=O)c2cnn3ccc(nc23)N[C@H](C)c2cc(F)ccc2O1 | equilibrium dialysis | cell medium with 10% FBS | – | 0.56
C=CC(=O)Nc1cc(Nc2nccc(-c3cn(C)c4ccccc34)n2)c(OCC(F)(F)F)nc1N(C)CCN(C)C | equilibrium dialysis | human plasma | – | 0.63%
Cc1ccccc1CN1C(=O)C2=C(CCN(Cc3ccccc3)C2)N2CCN=C12 | equilibrium dialysis | plasma | 1.932 mg/L | 0.0389

Compound | test | system | setting | fraction unbound
Cc1cc(Nc2ccc(S(F)(F)(F)(F)F)cc2)n2nc(C(C)(F)F)nc2n1 | rapid equilibrium dialysis | CD-1 mouse plasma | 24 h | 0.025 ± 0.0097
CC(F)(F)CN1Cc2cc(C(F)(F)F)ncc2C2=CN=C(NCc3c(F)ccc4c3CCO4)N3C=NC(C1=O)C23 (centres unmarked) | – | rat plasma | – | < 0.01
N#C[C@@]1(c2ccc3c(N)ncnn23)O[C@H](CO)[C@@H](O)[C@H]1O | – | human plasma | 100 µM | 0.841
CCOC(F)(F)c1nnc2cnc(-c3cnc(OCC(F)(F)F)c(F)c3)cn12 | – | mouse brain | – | 0.015
c1cc(-c2ccc3ncnc(NC4CCOCC4)c3c2)cc(N2CCOCC2)c1 | – | human plasma | – | 0.0029
O=S(=O)(c1ccc(-c2ccc3ncccc3c2)cc1)N1CCOCC1 | – | human plasma | – | 0.071
CCC(C)n1ncn(-c2ccc(N3CCN(c4ccc(OCC5COC(Cn6cncn6)(c6ccc(Cl)cc6Cl)O5)cc4)CC3)cc2)c1=O (centres unmarked) | rapid equilibrium dialysis | 10% human plasma | 2 µM, 24 h, pH 7.4 | 0.0009
O=C1C2N=CN3C(NCc4c(F)ccc5c4CCO5)=NC=C(c4cnc(C(F)(F)F)cc4CN1CC(F)F)C23 (centres unmarked) | – | human plasma | – | < 0.01
Cc1cnc(Nc2ccnc3ccc(-c4ccc(S(=O)(=O)N5CCOCC5)cc4)cc23)s1 | – | human plasma | – | 0.004
Clc1ccc(Nc2ncnc3ccc(-c4cccc(N5CCOCC5)c4)cc23)cc1 | – | human plasma | – | < 0.0017
COc1cc2c3c(n(CCCN4CCOCC4)c(=O)c2cc1OC)-c1cc2c(cc1C3=O)OCO2 | equilibrium dialysis | dog plasma | 4300 ng/mL, 24 h, 37 °C | 0.039
C[C@@H](NC(=O)c1ccc(C#Cc2cccc(F)c2)cn1)C(C)(C)O | – | brain homogenate | – | 0.007
C=C(F)C(=O)N1CCN(c2nc(OC[C@@H]3CCCN3C)nc3c2CCN(c2cccc4cccc(Cl)c24)C3)C[C@@H]1CC#N | equilibrium dialysis | human liver microsomes | 1 µM, 1 mg/mL microsomal protein | 0.04
O=C(CS(=O)(=O)O)Nc1nc2ccccc2s1 | equilibrium dialysis | mouse plasma | 4.5 h | > 0.2
Clc1ccc(COc2cncc(-c3cnn(C4CCNCC4)c3)c2)c(Cl)c1 | – | mouse brain | – | 0.0014
NC/C(=C\F)COc1cccc(Cn2c(=S)[nH]c(=O)c3[nH]cnc32)c1 | – | rat plasma | 10 µM, 5 (unit not given) | 0.15
CC(=O)Nc1nnc(N2CCN([C@@H](C)c3ccc4c(c3)OCO4)CC2)s1 | – | rat plasma | 1 µM | 0.098
